Measured values from different studies.
A part holds a random share of what one study measured. Substitutions count along the parent as printed.

Block 1 — method: competition protein-binding microarray; form: double-stranded DNA, one strand shown; sample: in vitro; concentration: 2 µM; together with: Cbf1 competitor, 0.05 µM; reading: higher = stronger binding; all sequences stand within: … GTCTTGATTCGCTTGACGCTGCTG
Target: Phosphate system positive regulatory protein PHO4, full length, GST-tagged (PHO4, Saccharomyces cerevisiae, UniProt P07270, residues 1-312)
Setting: whole 60-bp probe, lowest competitor level
Target sequence (chain): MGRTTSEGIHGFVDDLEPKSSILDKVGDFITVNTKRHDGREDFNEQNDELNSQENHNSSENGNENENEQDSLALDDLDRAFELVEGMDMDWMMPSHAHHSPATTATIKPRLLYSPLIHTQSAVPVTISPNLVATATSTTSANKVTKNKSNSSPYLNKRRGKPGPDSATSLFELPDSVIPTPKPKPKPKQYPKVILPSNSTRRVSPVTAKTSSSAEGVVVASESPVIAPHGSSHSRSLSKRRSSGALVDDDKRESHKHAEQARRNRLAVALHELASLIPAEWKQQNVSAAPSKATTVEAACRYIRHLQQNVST
Oligonucleotide | fluorescence intensity [a.u.]
AGCAGAATTACCCTCCACGTTGATTGTCTGCGAGGC | 11100
CACTATGAGGATCAACACGTGAAGAGAGCCTTGAAG | 15200
GATCTGGTCGTACGGCCCGTGCTTTCAGAATTGGTG | 10100
CTAACGAAGGTTTGTCACTACACTTACAAGCCAAGT | 4180
AAAGCGGTAATTTGTTGGGTGGGTGCAGATATCTAT | 4220

Block 2 — method: protein-binding microarray; form: double-stranded DNA, one strand shown; sample: in vitro; concentration: not given; reading: higher = stronger binding
Target: Myc proto-oncogene protein, bHLH-zipper, MAX partner unstated (MYC, Homo sapiens, UniProt P01106, residues 368-449)
UniProt P01106, sequence (368-449, looked up): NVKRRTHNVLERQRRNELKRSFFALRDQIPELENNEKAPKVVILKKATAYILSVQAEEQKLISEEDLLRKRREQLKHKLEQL
Setting: k-mer, scored over probes, only values ≥0.25
Oligonucleotide | E-score
CACACGCC | 0.357
AGCATGCG | 0.433
CAACGCAC | 0.268
AAGCACGA | 0.294
ACATGGAG | 0.329

Block 3 — method: DHFR PCA, deep sequencing; sample: yeast; together with: (+)-ABA 0.0091 µM; relative to: wild-type fitted maximum; reading: higher = stronger binding
Target: ABI1, truncated, D143A, DHFR fusion (Arabidopsis thaliana)
Setting: methotrexate growth selection, single substitutions
Starting sequence: PYL1, truncated, DHFR fusion (Arabidopsis thaliana); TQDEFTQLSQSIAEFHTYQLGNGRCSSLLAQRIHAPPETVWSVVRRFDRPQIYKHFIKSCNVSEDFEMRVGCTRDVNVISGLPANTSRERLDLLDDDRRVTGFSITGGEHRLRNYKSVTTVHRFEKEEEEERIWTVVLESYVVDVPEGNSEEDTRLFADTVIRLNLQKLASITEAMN; partner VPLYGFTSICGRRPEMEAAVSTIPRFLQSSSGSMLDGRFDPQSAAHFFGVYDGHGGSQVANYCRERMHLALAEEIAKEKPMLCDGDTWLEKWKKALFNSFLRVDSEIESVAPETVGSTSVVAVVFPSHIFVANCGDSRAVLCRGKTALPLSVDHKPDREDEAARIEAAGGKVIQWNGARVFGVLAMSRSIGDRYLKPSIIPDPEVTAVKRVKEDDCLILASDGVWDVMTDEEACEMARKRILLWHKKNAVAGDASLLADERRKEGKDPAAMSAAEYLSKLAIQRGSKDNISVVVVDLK
Substitution | relative binding score [%]
E89F | 8.26
G23L | 0.889
L93H | 2.15
F157Q | -0.00937

Further values, each from its own experiment
Substance | target | test | system | setting | how to read | endpoint | result
PhoQ, residues 284 288 289 292 302 303 SIHMAM | PhoP, residues 12 14 15 18 19 NQGLL (Escherichia coli, UniProt P23836) | Sort-seq, measured: YFP reporter | E. coli | PhoQ-PhoP variant library, together with: 10 µM Mg2+ | relative to: high Mg2+ state, higher = stronger signaling | fold induction | 4.89

A few entries again (block 2):
Oligonucleotide | E-score
CACACGCC | 0.357
